Assay results pooled from the literature.
Numbered parts are unrelated; each lists some results of a single study. “And” joins repeats or separate records; there may be more than shown.
Chain of UniProt Q96G91 (whole entry, looked up): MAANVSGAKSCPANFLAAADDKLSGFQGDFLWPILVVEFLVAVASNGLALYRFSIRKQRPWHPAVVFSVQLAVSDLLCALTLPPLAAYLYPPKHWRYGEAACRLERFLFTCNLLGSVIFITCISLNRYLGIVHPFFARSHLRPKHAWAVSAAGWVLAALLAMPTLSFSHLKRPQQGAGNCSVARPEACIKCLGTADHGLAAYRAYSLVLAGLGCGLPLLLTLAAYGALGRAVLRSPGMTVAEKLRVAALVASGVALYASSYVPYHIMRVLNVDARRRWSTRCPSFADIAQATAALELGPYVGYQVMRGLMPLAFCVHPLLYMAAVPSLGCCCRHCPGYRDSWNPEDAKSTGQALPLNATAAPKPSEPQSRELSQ
Chain of UniProt P35414 (whole entry, looked up): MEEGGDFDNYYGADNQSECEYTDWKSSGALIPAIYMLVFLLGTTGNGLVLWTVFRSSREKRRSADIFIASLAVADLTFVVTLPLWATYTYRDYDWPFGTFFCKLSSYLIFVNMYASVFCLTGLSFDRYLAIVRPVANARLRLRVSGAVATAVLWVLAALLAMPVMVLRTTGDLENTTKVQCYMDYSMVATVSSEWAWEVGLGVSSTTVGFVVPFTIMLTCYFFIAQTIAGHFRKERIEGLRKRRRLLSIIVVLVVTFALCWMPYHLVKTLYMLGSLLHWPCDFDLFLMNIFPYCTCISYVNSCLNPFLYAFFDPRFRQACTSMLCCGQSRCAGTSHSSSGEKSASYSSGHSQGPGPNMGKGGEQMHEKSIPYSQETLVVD
Chain of UniProt P34972 (whole entry, looked up): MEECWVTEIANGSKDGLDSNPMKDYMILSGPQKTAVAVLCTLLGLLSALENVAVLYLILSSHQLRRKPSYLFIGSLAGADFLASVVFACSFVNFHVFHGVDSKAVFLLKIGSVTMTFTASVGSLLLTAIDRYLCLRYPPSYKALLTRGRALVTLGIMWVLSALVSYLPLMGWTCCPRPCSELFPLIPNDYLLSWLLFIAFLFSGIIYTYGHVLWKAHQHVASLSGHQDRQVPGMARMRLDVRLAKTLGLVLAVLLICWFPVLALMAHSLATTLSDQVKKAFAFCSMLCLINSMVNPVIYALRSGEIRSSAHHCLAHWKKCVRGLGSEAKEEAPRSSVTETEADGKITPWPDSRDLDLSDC
Chain of UniProt P14416 (whole entry, looked up): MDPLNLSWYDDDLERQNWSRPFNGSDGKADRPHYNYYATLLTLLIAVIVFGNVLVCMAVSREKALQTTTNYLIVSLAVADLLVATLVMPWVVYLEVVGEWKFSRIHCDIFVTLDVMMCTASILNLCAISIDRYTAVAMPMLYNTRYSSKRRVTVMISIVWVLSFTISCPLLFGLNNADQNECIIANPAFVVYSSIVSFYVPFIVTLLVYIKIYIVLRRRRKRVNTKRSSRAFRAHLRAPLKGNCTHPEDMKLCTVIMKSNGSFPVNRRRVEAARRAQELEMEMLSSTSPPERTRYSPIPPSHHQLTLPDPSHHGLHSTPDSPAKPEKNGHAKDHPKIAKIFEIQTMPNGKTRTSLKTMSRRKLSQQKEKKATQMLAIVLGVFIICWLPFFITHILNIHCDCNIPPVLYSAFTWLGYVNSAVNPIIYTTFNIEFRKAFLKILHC
Chain of UniProt Q96P65 (whole entry, looked up): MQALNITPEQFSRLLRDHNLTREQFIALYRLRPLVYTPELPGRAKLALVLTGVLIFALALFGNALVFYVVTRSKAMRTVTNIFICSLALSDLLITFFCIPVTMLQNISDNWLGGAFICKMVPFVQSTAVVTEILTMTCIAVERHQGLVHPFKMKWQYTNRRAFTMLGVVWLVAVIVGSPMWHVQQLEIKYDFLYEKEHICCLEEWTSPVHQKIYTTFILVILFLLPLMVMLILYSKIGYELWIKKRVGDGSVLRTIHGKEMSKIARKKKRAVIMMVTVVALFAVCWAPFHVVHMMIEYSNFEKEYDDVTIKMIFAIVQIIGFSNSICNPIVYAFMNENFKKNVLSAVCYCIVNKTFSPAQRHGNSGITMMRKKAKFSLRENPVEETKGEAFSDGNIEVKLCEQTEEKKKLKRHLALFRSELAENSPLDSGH
Chain of UniProt P47898 (whole entry, looked up): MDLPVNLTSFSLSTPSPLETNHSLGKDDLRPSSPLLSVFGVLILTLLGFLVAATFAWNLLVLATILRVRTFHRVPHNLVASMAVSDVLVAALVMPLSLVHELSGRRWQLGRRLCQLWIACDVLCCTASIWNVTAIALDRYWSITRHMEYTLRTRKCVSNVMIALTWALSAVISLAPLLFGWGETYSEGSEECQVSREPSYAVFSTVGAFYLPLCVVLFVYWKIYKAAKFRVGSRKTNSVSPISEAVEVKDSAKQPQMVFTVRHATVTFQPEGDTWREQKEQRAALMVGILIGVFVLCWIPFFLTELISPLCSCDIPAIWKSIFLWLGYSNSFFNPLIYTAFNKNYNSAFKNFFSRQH
Chain of UniProt P25090 (whole entry, looked up): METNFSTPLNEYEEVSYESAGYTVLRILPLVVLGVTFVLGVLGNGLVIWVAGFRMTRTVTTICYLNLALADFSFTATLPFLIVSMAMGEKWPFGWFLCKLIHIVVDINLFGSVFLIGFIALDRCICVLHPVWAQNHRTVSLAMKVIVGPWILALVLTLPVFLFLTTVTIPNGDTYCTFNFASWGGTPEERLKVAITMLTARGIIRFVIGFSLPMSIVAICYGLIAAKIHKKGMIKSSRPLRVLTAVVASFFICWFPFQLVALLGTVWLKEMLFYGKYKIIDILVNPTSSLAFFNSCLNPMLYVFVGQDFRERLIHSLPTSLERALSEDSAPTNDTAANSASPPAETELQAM

Block 1
Target: Calcium/calmodulin-dependent protein kinase type II subunit alpha (CAMK2A, Homo sapiens, UniProt Q9UQM7)
Chain of UniProt Q9UQM7 (whole entry, looked up): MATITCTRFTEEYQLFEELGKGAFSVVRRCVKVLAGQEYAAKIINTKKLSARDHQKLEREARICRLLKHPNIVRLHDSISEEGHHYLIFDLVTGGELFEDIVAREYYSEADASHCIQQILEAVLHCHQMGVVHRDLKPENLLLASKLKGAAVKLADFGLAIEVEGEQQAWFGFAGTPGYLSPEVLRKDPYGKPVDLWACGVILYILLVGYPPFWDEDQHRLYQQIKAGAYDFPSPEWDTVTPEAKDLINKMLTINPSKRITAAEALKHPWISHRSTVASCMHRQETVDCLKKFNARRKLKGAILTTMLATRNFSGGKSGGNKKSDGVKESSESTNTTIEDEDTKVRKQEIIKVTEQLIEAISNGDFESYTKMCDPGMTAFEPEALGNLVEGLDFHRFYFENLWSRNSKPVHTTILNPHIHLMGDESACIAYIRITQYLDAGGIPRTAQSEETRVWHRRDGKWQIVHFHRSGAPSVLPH
Read-out: enzyme activity
Mode: inhibitor
Concentration: 10 µM
For `C[C@@H]1O[C@@H](O[C@H]2[C@H](Oc3cc(O)c4c(=O)cc(-c5ccc(O)c(O)c5)oc4c3)O[C@H](CO)[C@@H](O)[C@@H]2O)[C@H](O)[C@H](O)[C@H]1O`, the inhibition was -37%.
`COc1cc(C=O)ccc1O` has an inhibition of -9%.
`CC(C)Cc1ccc([C@H](C)C(=O)O)cc1` has an inhibition of 1%.
With `O=C(O)c1cc(O)c2c(c1)[C@H]([C@H]1c3cccc(O)c3C(=O)c3c(O)cc(C(=O)O)cc31)c1cccc(O)c1C2=O` the inhibition was -27%.
For `COc1cc(-c2coc3cc4c(c(OC)c3c2=O)OCO4)cc(OC)c1OC`, the inhibition was 11%.
`CO[C@@H]1[C@@H](O[C@@H]2O[C@H](C)[C@@H](O[C@H]3C[C@@](C)(O)[C@@H](O)[C@H](C)O3)[C@H](N(C)C)[C@H]2O)[C@@H](CC=O)C[C@@H](C)[C@@H](O[C@H]2CC[C@H](N(C)C)[C@@H](C)O2)/C=C/C=C/C[C@@H](C)OC(=O)C[C@H]1O` gave an inhibition of -1%.
The inhibition of `c1coc(CNc2ncnc3[nH]cnc23)c1` is reported as -4%.
`CC(=O)N[C@@H](CCCN)C(=O)O` gave an inhibition of -15%.
For `CC1(C)O[C@@H]2C[C@H]3[C@@H]4C[C@H](F)C5=CC(=O)CC[C@]5(C)[C@H]4[C@@H](O)C[C@]3(C)[C@]2(C(=O)CO)O1`, the inhibition was -8%.
The inhibition of `CCOc1nc2cccc(C(=O)O)c2n1Cc1ccc(-c2ccccc2-c2noc(=O)[nH]2)cc1` is reported as -8%.
With `CC(C)=CCC[C@@H](C(=O)O)[C@H]1CC[C@@]2(C)C3=CC[C@H]4C(C)(C)[C@@H](O)CC[C@]4(C)C3=CC[C@]12C` the inhibition was 32%.

Block 2
Structure (SMILES): O=C(Nc1cccnn1)N1CC(CC=Cc2cncc(Oc3ccc(C(F)(F)F)cn3)n2)C1
Concentration: 1 µM
It gave 102% for viability (sample I colorectal tumour organoid; replicate 1; relative to: DMSO).
It gave 103% for viability (sample C colorectal tumour organoid; replicate 2; relative to: DMSO).
sample B colorectal tumour organoid; replicate 1; relative to: DMSO — viability: 123%.
The viability was 118% (sample B colorectal tumour organoid; replicate 2; relative to: DMSO).
It gave 94.2% for viability (sample BA colorectal tumour organoid; relative to: DMSO).
For sample I colorectal tumour organoid; replicate 2; relative to: DMSO: viability read 125%.
The viability was 96.2% (sample C colorectal tumour organoid; replicate 1; relative to: DMSO).
For colorectal tumour organoids; relative to: DMSO: viability read 107%.
sample D normal epithelium organoids; human patient-derived organoids; relative to: DMSO control — viability: 106% and 94.6%.

Block 3
Target: Tyrosine-protein kinase Srms (SRMS, Homo sapiens, UniProt Q9H3Y6)
Chain of UniProt Q9H3Y6 (whole entry, looked up): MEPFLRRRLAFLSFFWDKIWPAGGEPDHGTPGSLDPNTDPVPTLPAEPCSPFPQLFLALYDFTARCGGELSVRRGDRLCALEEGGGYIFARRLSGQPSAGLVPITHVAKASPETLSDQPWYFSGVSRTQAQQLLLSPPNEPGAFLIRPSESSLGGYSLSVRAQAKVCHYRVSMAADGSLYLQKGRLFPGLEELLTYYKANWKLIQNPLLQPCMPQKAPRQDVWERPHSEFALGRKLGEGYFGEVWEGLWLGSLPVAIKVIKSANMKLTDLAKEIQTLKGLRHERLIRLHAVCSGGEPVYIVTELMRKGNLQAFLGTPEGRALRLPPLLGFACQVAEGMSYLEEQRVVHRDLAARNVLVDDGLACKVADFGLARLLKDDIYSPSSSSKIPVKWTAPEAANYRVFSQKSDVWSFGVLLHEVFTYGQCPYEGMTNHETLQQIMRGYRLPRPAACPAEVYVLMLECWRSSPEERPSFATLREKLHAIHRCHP
Read-out: enzyme activity
Mode: inhibitor
Concentration: 0.5 µM
Relative to: control
For `Cc1cn(-c2cc(NC(=O)c3ccc(C)c(Nc4nccc(-c5cccnc5)n4)c3)cc(C(F)(F)F)c2)cn1`, the remaining activity was 118%.
The remaining activity of `CCN(CC)C(=O)c1ccc(Nc2nc(OCC3CCCCC3)c3[nH]cnc3n2)cc1` is reported as 84.7%.
With `N#Cc1c(NC(=O)c2cccc3ccccc23)sc2c1CCCC2` the remaining activity was 106%.
`C[C@@H]1CCN(C(=O)CC#N)C[C@@H]1N(C)c1ncnc2[nH]ccc12` has a remaining activity of 95.8%.
With `Cc1cc2ncc(-c3ccccc3)nc2cc1C` the remaining activity was 93.5%.
`O=C1c2ccccc2-c2n[nH]c3cccc1c23` has a remaining activity of 99.1%.
The remaining activity of `O=C(NC(NC(=S)Nc1ccc(F)c([N+](=O)[O-])c1)C(Cl)(Cl)Cl)C(c1ccccc1)c1ccccc1` (stereo not shown) is reported as 96.9%.
`O=C1C(Cl)=C(N2C(=O)CCC2=O)C(=O)c2ccccc21` has a remaining activity of 108%.
With `O=C(Nc1cccc(Nc2nccc(Nc3cccc(C(F)(F)F)c3)n2)c1)C1CC1` the remaining activity was 95.5%.
`CN(C)C[C@H]1CCn2c(c(C3=C(c4cn(C)c5ccccc45)C(=O)NC3=O)c3ccccc32)C1` has a remaining activity of 109%.
`Cc1nc2cc3nc(-c4cccs4)cnc3cc2n1C` has a remaining activity of 95.4%.
`c1ccc(-c2cnc(Nc3ccc(OCCN4CCCC4)cc3)s2)cc1` has a remaining activity of 96.5%.
`Ic1cccc(CSc2nnc(-c3ccncc3)o2)c1` gave a remaining activity of 93.4%.
`CN([C@@H](Cc1ccc(OS(=O)(=O)c2cccc3cnccc23)cc1)C(=O)N1CCN(c2ccccc2)CC1)S(=O)(=O)c1cccc2cnccc12` has a remaining activity of 103%.
`COc1cc2ncnc(Nc3ccc(O)c(Br)c3)c2cc1OC` has a remaining activity of 90.4%.
With `CCN(CC)CCNC(=O)c1c(C)[nH]c(/C=C2\C(=O)Nc3ccc(F)cc32)c1C` the remaining activity was 99.6%.
`Nc1cccc(-c2cc3c(Oc4cccc(O)c4)ncnc3[nH]2)c1` gave a remaining activity of 94.4%.
`O=c1cc(-c2cccc3c2Sc2ccccc2S3)oc(N2CCOCC2)c1` has a remaining activity of 93.8%.
`c1ccc(-c2[nH]ncc2-c2ccnc3ccccc23)nc1` has a remaining activity of 105%.
`COc1cc2c(cc1OC)-c1[nH]nc(Nc3cccc(F)c3)c1C2` gave a remaining activity of 99.9%.
`Cn1nc2c3c(cccc31)C(=O)c1ccccc1-2` has a remaining activity of 104%.
`CCOc1nc(NC(=O)Cc2cc(OC)ccc2OC)cc(N)c1C#N` has a remaining activity of 108%.
`CCN(CC)CCNC(=O)c1c(C)[nH]c(/C=C2\C(=O)Nc3ccc(Cl)cc32)c1C` has a remaining activity of 102%.
The remaining activity of `N#C/C(=C\c1ccc(O)c(O)c1)C(=O)NCc1ccccc1` is reported as 104%.
`COc1cc2ncnc(Nc3cccc(Cl)c3)c2cc1OC` has a remaining activity of 93.8%.

Block 4
SMILES: N=C(N)NC(=O)c1cnn(-c2cccc3ncccc23)c1C1CC1
Read-out: β-arrestin recruitment
Mode: agonist
Method: PRESTO-Tango
Concentration: 10 µM
Relative to: untreated
The “fold over basal” was 0.86 fold (FPR2 (Homo sapiens, UniProt P25090)).
It gave 1.89 for “fold over basal” (P2Y purinoceptor 11 (P2RY11, Homo sapiens, UniProt Q96G91)).
For DRD2 (Homo sapiens, UniProt P14416): “fold over basal” read 0.75.
It gave 0.98 for “fold over basal” (HTR5A (Homo sapiens, UniProt P47898)).
The “fold over basal” was 1 (CNR2 (Homo sapiens, UniProt P34972)).
The “fold over basal” was 0.96 (QRFPR (Homo sapiens, UniProt Q96P65)).
It gave 1.12 for “fold over basal” (Apelin receptor (APLNR, Homo sapiens, UniProt P35414)).
